Assay results of several laboratories.
Every numbered part comes from another study and shows a few of its results, in no order.

Sample 1
Target: Histone acetyltransferase KAT6A, both winged helices, GST fusion (KAT6A, Homo sapiens, UniProt Q92794, residues 1-181)
Technique: protein binding microarray
Form: double-stranded DNA, one strand shown
Medium: in vitro
Tested at: not given
Setting: 8-mer, flanks averaged, mean of 2 arrays, mostly near background
Reference: not given
Direction: higher = stronger binding
Target sequence (chain): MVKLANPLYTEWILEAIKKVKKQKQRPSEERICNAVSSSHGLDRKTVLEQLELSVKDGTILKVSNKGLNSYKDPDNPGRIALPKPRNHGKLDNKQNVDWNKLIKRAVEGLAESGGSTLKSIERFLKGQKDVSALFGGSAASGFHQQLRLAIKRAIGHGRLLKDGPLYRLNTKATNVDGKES
`CAGTGCCA` gave an E-score of -0.299.
The E-score of `CTATACGC` is reported as 0.06.
`CGGCATGC` gave an E-score of 0.307.
`TCAGCGGA` has an E-score of 0.195.

Sample 2
Target: Prothrombin, mature alpha-thrombin (F2, Homo sapiens, UniProt P00734)
Technique: aptamer microarray, sandwich
Form: DNA with 2'F-ANA
Medium: in vitro
Tested at: 200 nM
Setting: whole 15-mer aptamer, many near background
Added: Cy3 exosite-II aptamer, 400 nM
Direction: higher = stronger binding
For `GGTTGGTGTGGTTGG (2'F-ANA at 3 4 8 9 10 14 15)`, “mean fluorescence intensity” read 176 a.u.
For `GGTTGGTGTGGTTGG (2'F-ANA at 1 5 8 9 11 12 14)`, “mean fluorescence intensity” read 47 a.u.
Under “mean fluorescence intensity”, `GGTTGGTGTGGTTGG (2'F-ANA at 1 5 6 10 12 14)` is recorded as 47.3 a.u.
`GGTTGGTGTGGTTGG (2'F-ANA at 2 7 9 10 12 13)` — result for “mean fluorescence intensity”: 155 a.u.

Sample 3
Target: RNA binding protein fox-1 homolog 2, RRM domain, GST-SBP tag (RBFOX2, Homo sapiens, UniProt O43251-10, residues 100-194)
Technique: RNA Bind-n-Seq
Form: RNA
Medium: in vitro
Tested at: 365 nM
Setting: natural RNA segment, single round, ends assumed
Reference: no-protein control
Direction: higher = stronger binding
All sequences stand within: GGGAGUUCUACAGUCCGACGAUC … UGGAAUUCUCGGGUGCCAA
Construct (chain): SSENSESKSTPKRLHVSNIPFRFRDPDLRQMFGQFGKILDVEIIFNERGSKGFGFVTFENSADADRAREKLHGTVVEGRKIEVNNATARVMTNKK
`CCUAGAUGACUAUGCACACACUGGGUUUCAAGAUGAAAUCUUCUUAUAUAUUCAGAUGGAAAAAAAUUUCCCCUUACACUCUUUCUCAAAAUACUCUCAUUUCGGUUUUU`: “RBNS enrichment (R)” 0.844.
Under “RBNS enrichment (R)”, `CAUUUAAAGCUGUUCAUCCAUGGUGCCUCCCCAAAUCAUAAGACCAAAGACCACCAAACGCAGGGUGGACUCUGCUCAUUAUUCUUUGACCCAGAAAGACUGGAGAAGGU` is recorded as 0.389.
`GACCAGGCCCUGCCUAGGCCCUGCCGCAGAACCACCAUCCCUGGGAGGCCCUGCAGAGCCCACCUGUGGGGAAAGAGAAGGGGCAGCUUCCGGAUUUUCUUUUGGGGGUU` — result for “RBNS enrichment (R)”: 0.271.
`UCAGCCAAAGCAAAAGAUGGCUGCUGCUUUGUAGGCAUGUGCCUGCAAGUGGGACCUUGCUGGGCAUUAUAUGCCCUGUGGGGGUUUCAGAGACCCUGAAAGAGGAGGGA` — result for “RBNS enrichment (R)”: 0.287.
Under “RBNS enrichment (R)”, `AAAACAUGACCACUCUUGGCUAUUGAAGAUGCUGCCUGUAUUUGAGAGACUGCCAUACAUAAUAUAUGACUUCCUAGGGAUCUGAAAUCCAUAAACUAAGAGAAACUGUG` is recorded as 0.579.
`UCCUCGUGCACAGAAAUGCUCAGGGUCCCCAUGUGCCUGUUGUUCAGCCCUCUCUCUUGUUCCCUUUCUGAGCAUGUGGUCCUUCCCCAGGCUGUGGGACAGCUGCCUUC`: “RBNS enrichment (R)” 2.23.

Mixed results
With `PhoQ, residues 284 288 289 292 302 303 AGGLSV` the fold induction was 4.53 (PhoP, residues 12 14 15 18 19 AGCRL (Escherichia coli, UniProt P23836); Sort-seq, refers to: YFP reporter; E. coli; PhoQ-PhoP variant library, added: 10 µM Mg2+; reference: high Mg2+ state, higher = stronger signaling).

For quick reference, copied from above (sample 1):
`TCAGCGGA` has an E-score of 0.195.
The E-score of `CTATACGC` is reported as 0.06.
